Results pooled from the literature.
Every numbered part comes from another study and shows a few of its results, in no order. Positions count from the first letter of the parent shown.

Series 1
Target: Interferon regulatory factor 7, full length, phosphomimetic (IRF7, Homo sapiens, UniProt Q92985, residues 1-503, S471D/S472D/S475D/S476D/S477D/S483D/S484D/S487D)
Technique: protein-binding microarray
Molecule type: double-stranded DNA, one strand shown
Sample: in vitro
Concentration: 2200 nM top
Setting: 60-bp whole probe
With: salmon DNA 0.4 mg/ml
Reference: random background probes
Direction: higher = stronger binding
Shared flanks, not repeated: GCCTAGCAC … GTCTTGATTCGCTTGACGCTGCTG
Residues (chain): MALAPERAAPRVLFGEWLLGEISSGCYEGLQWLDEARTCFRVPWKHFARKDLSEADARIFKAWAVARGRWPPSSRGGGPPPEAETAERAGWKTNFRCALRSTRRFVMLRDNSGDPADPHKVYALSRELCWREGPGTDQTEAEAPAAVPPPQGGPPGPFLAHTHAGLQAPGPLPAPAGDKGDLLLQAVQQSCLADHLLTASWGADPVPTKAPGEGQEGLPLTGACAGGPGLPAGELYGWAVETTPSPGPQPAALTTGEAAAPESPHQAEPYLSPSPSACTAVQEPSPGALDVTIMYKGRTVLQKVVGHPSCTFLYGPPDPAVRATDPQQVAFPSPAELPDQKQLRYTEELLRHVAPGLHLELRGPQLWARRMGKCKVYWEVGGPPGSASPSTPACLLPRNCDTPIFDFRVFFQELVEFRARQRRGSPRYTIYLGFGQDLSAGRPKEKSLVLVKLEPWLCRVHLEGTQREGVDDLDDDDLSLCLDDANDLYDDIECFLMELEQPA
Strand	fitted relative affinity
GACGAACTGGGGGTTCGAGACGTGCTA	0.35 z-score
TCAGCATTCCCTTTCTCACTGTGCTAG	2.44 z-score
GACGGTTCCGGTTTCGCGACGTGCTAG	4.22 z-score
GACGGTTTCGGGTGTCGGGACGTGCTA	5.08 z-score
TGTCTTCCCCATCTTGTTCCGTGCTAG	2.49 z-score
GGCGATATCAGTATCGAGACGTGCTAG	0.0779 z-score
GACGGTATCCTCATCCTGACGTGCTAG	0.944 z-score
GACGGTTTCGGTTCCGGGATGTGCTAG	11.8 z-score
TTAGGACTGTTTCTCCTTTAGTGCTAG	1.29 z-score
GACGGTATCCTTATTCTGACGTGCTAG	0.858 z-score
TTAGTTATCGGGTTTCGATTAGTGCTA	3.83 z-score
AACGGACTGGGGTATCGGGACGTGCTA	-0.637 z-score
GACGGTTCCCTTTTCCTGGCGTGCTAG	2.45 z-score
GTAAATCTTTTTCCCTATTAGTGCTAG	1.32 z-score
TCAACACTAATTTTCATACTGTGCTAG	1.15 z-score
ATAGGTATCCTTTTCCTTTAGTGCTAG	1.83 z-score
GACGATCTAAGTTTCGAGACGTGCTAG	2.72 z-score
GACGGTTTCGACACTGGGGAGGTGCTA	2.55 z-score
TTTTCATTATTGTCTCCCCCAGTGCTA	2.03 z-score
GACGATCTCAGATTCGAGACGTGCTAG	0.616 z-score
GACGGACTGCTTATCCTGAGGTGCTAG	-0.0851 z-score
TTAGGACTGGGTTTCGCTTAGTGCTAG	2.15 z-score
TTAGGTATCGGAACTGGGTTAGTGCTA	-0.182 z-score
GACGGTATCGACTATCGGGACGTGCTA	-0.159 z-score
AACGGTTTCGGTCTCGGGACGTGCTAG	6.87 z-score

Series 2
Target: ABI1, truncated, D143A, DHFR fusion (Arabidopsis thaliana)
Technique: DHFR PCA, deep sequencing
Sample: yeast
Setting: methotrexate growth selection, single substitutions
With: (+)-ABA 0 µM
Reference: wild-type fitted maximum
Direction: higher = stronger binding
Starting sequence: PYL1, truncated, DHFR fusion (Arabidopsis thaliana); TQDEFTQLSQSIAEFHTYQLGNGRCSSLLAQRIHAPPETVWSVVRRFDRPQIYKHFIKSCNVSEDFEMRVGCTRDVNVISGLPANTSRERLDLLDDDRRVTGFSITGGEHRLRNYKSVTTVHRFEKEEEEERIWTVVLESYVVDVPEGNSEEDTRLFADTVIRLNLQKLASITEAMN
Substitution	relative binding score [%]
V70T	4.11
T17A	-0.219
Q31M	1.56
A30E	-6.33
T1Y	40.1
C25V	61.5
L29T	1.89
P146V	26.8
L82M	39.3
G148N	-13.7
E64I	5.6
G108C	3.5
V62R	0.438
T39G	2.22
M176H	7.47

Series 3
Target: RING finger protein unkempt homolog, zinc fingers 1-6, GST-SBP tag (UNK, Homo sapiens, UniProt Q9C0B0, residues 30-357)
Technique: RNA Bind-n-Seq
Molecule type: RNA
Sample: in vitro
Concentration: not given
Setting: RNA with constant flanks, human-mouse chimeric sites, ends assumed
Reference: input RNA pool
Direction: higher = stronger binding
Target sequence (chain): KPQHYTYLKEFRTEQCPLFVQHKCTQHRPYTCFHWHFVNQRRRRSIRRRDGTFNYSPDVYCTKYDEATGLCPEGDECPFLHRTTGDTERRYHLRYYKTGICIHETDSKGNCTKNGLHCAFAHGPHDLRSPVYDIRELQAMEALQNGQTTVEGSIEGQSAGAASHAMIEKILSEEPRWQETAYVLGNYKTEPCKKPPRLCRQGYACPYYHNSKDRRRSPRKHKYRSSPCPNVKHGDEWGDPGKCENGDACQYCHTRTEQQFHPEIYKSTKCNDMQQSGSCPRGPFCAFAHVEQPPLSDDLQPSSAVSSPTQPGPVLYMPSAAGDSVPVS
Strand	bound/input enrichment [ratio]
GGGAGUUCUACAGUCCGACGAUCAUAGAUGAAAUUGAUGUGGACCAGGAAGGAAUUGCUGAAAUGAUGCUGGAUGAAAAUGCUAUUGCUCAGGUCCCACGCCCUGGCACAUCUUUGAAACUCCCUGGCACUAACCAAACAGGACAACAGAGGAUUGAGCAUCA	0.23
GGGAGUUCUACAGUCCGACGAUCUUCCCAACCUCCCGCCUCACCCCACCCAAGAAAGAAAGAAAGUUUUUGGCGUUUCUUUUCCUUCCCCAUACAAAGUGAUUACAGUUUCCCCCGCAAGGGUCUAUCGAAGGGCUUGACGGACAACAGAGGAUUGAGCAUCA	0.455
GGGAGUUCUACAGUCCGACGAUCACAGUUAUAUUGUUGAGUUUCAUUUUCAUAUAUUCUUGUAGUGUCUGCUUGCCUGUGACUUCUGGUAAAAUAAAAUAUUAAAAUUACUUAGCAUGCUCAUGGUAUUUAACAUUUUCUAAACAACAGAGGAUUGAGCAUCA	2.58
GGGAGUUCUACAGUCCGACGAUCCAGGGCAUCAUCUCUCGUGCUGUUAGACACCUUUUUAAGAGUAUUGAUGAGAAAAAGACCUCAGCGAUUAAAAAUGGGCUGCCCCCUCCUGAAUUCAAAGUGAAUGCCCAGUUCCUAGAGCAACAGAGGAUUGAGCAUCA	0.354
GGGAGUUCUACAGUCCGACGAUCUUUCUACUGCAGCAAACGAUGCUAAGAAUUAAGGAUCCUAAGAAGUCCCUGGAUUUUUAUACGAGGGUUCUUGGAAUGACCCUCCUGCAAAAAUGUGACUUCCCUGCUAUGAAGUUCUCGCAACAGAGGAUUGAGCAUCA	0.0714
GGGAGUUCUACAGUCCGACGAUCAGUUCCAAACCACCAUCAGAAAUGAAGAUGAGAUUACCCAGACGAGCCAAAACAGCUGCGCUACAGAAAAGUAAACUUAACCUUGCAGAGUUCCUUAAUGAAGAUACUAAGUUAGGAAGCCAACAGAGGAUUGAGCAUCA	0.465
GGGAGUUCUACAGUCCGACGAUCGCAUAUGGUUAUCGAGGAAAGGACUGUAGAGCGAAUGUAUACCUGCUUCCCACAGGGGAGAUAGUUUAUUUUAUCGCAUCAGUAGUAGUCCUGUUUAAUUAUGAGGAGAGGACUCAGCGACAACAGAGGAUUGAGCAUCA	3.02
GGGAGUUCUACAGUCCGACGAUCGAAUCCUACUCAGGCGGAUUUUGCAACACCAAGCUCACAGCAGCAGCAUCUUAGUCACAGUAGGGUAGCUUUAGGGCAAUAUUGCCAGGGUUUUAUUCACAUGCAGGUUUGGAAAAUGUACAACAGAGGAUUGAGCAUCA	6.68
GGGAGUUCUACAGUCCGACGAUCCAGCCUCAGAGCCCAGACUUCCUGGAUAUUACCAACCCUAAAGCGGUAUUAGAAAAUGCACUUAGGAACUUCGCCUGUCUGACCACCGGAGAUGUGAUUGCUAUCAACUACAAUGAGAAGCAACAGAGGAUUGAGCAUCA	0.681
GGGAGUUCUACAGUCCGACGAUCCACAGAGGAGAUCUGCUGUUCCUCACGAAUUUCCGGGAGGACCCCAUCAGAGCUGGUGAAAUAGUUGUUUUUAAGGUUGAAGGACGAGACAUUCCGAUAGUUCACAGAGUAAUCAAGGUUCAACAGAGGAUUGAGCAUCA	3.51
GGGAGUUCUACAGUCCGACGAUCUAUUUUUGACAGCCACAAAUUCUUGGCAUGUAUUAAGGAAAAAAAAAAUCCCUGUUGAAGUAGUUUUUCCACCUAUCAGCACUGAGUAAAUGCCAUAACUCCGCGGAAAUGGUCUAAAUACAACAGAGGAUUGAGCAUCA	0.243

Series 4
Target: Histone acetyltransferase KAT6A, winged helix 1, GST fusion (KAT6A, Homo sapiens, UniProt Q92794, residues 1-85)
Technique: protein binding microarray
Molecule type: double-stranded DNA, one strand shown
Sample: in vitro
Concentration: not given
Setting: 8-mer, flanks averaged, mean of 2 arrays, mostly near background
Reference: not given
Direction: higher = stronger binding
Residues (chain): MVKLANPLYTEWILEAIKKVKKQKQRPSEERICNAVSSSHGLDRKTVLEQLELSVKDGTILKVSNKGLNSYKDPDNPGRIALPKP
Strand	E-score
CAAGCCAA	-0.0639
TACCATCA	-0.137
ACACAAGC	-0.19
GCTAAAAA	0.0176
CCGGCGCG	0.45
AGCTCGCA	-0.183
TTAGCCAA	-0.111
ATTCAACC	-0.0564
AGTTCCGG	0.0698
TTCGCCAA	-0.129
ATGGACTG	-0.252
AAACCTTT	-0.0527
AAACACAT	-0.222
CGAACGAA	-0.08
CACGTGTA	-0.159
TGTAGACA	-0.198

Series 5
Target: CCNE2, cyclin fold, Cln2 fusion (human)
Technique: yeast growth competition, sequencing
Sample: yeast
Setting: strong parent motif
Reference: not given
Direction: higher = stronger binding
Starting sequence: PKN2 docking peptide (human); VSAVRKLDFSDTM; partner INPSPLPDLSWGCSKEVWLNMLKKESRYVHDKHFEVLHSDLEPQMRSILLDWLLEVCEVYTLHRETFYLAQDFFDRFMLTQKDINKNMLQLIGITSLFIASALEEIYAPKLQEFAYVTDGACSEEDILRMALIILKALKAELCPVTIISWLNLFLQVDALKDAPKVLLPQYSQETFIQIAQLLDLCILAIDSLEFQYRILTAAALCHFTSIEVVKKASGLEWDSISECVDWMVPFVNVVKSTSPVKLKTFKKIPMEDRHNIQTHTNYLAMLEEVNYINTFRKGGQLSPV
Substitution	normalised enrichment score
VSAVRMLDFSDTM [K6M]	2.45
VSAERKLDFSDTM [V4E]	0.0516
VSAVRKLDTSDTM [F9T]	0.24
VSAVRKLDFADTM [S10A]	4.24
VSAVRKLDFLDTM [S10L]	3.13
VSAVRALDFSDTM [K6A]	2.42
VSAVRKLDFSDHM [T12H]	4.61
VEAVRKLDFSDTM [S2E]	2.37
VSAVRKMDFSDTM [L7M]	0.397
VSAVDKLDFSDTM [R5D]	0.346
VSAVRKLQFSDTM [D8Q]	3.48
VSAVYKLDFSDTM [R5Y]	0.368
VSAVRKLDFSDEM [T12E]	3.91
VSAVRLLDFSDTM [K6L]	1.47
VSAVNKLDFSDTM [R5N]	-0.212
VSAVRKLDFSMTM [D11M]	5.2
VSWVRKLDFSDTM [A3W]	4.5
VSAVRKLIFSDTM [D8I]	3.42
VSADRKLDFSDTM [V4D]	-0.273

Series 6
Target: Sal-like protein 4, full length isoform A (SALL4, Homo sapiens, UniProt Q9UJQ4, residues 1-1053)
UniProt Q9UJQ4, sequence (whole entry, looked up): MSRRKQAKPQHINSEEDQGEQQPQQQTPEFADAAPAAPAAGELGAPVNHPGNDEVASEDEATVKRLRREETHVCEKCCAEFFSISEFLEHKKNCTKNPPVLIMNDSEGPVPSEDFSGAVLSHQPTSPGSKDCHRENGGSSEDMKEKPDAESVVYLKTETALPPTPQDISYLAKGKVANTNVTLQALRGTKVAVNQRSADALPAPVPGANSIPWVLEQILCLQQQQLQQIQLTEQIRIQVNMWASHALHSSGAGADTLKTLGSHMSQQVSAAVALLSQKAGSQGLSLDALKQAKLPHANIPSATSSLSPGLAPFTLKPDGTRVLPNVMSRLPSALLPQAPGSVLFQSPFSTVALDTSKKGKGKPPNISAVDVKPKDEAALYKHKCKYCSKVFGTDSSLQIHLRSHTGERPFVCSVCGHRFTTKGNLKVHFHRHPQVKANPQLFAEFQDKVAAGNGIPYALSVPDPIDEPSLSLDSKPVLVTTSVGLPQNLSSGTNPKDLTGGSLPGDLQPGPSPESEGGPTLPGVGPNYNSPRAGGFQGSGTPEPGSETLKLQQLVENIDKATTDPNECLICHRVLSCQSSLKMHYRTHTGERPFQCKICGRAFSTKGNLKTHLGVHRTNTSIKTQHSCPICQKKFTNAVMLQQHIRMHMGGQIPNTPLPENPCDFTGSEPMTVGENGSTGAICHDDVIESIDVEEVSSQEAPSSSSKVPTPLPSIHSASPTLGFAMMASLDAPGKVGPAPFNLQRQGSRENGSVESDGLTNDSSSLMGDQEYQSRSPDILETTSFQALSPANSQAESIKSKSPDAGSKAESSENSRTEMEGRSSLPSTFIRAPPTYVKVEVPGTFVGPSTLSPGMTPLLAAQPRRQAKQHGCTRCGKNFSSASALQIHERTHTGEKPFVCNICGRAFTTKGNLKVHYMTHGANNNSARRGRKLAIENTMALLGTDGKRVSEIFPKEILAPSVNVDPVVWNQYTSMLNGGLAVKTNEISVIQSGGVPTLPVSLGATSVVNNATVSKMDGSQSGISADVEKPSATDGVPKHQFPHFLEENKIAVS
Technique: universal PBM
Molecule type: double-stranded DNA, one strand shown
Sample: in vitro
Concentration: 600 nM
Setting: 8-mer, flanks averaged, mean of replicates
Direction: higher = stronger binding
Strand	E-score
GCTTAAGA	-0.02
GTGTGTGA	0.0175
CTCACGAG	-0.267
ACCATGCA	-0.0704
ATCAGATC	-0.0136
CTTGCTAA	0.063
CGCTACCC	-0.228
GTAGGTAA	0.116
CCATTGGA	-0.113
AGCTTCTG	-0.201
CTATGTTC	0.101
ATACCGTG	-0.0738
AGGGTATA	0.249
CGGGTCAG	-0.195
CCTAGGCA	-0.149
CCGCGTGA	-0.162
CTTTGGCA	-0.0985
ATAATCCC	0.131
AAACAAAA	0.253
CCTAGATC	-0.0943

Further values, each from its own experiment
Substance	target	test	test system	setting	how to read	measurement	result
PhoQ, residues 284 288 289 292 302 303 TLMATV	PhoP, residues 12 14 15 18 19 NFCKL (Escherichia coli, UniProt P23836)	Sort-seq, refers to: YFP reporter	E. coli	PhoQ-PhoP variant library, with: 10 µM Mg2+	reference: high Mg2+ state, higher = stronger signaling	fold induction	14.3

Excerpt of the above (series 1):
Strand	fitted relative affinity
GACGAACTGGGGGTTCGAGACGTGCTA	0.35 z-score
GACGATCTCAGATTCGAGACGTGCTAG	0.616 z-score
AACGGTTTCGGTCTCGGGACGTGCTAG	6.87 z-score
TCAGCATTCCCTTTCTCACTGTGCTAG	2.44 z-score
GACGATCTAAGTTTCGAGACGTGCTAG	2.72 z-score
GACGGTTCCGGTTTCGCGACGTGCTAG	4.22 z-score
GACGGTATCGACTATCGGGACGTGCTA	-0.159 z-score
AACGGACTGGGGTATCGGGACGTGCTA	-0.637 z-score
GACGGACTGCTTATCCTGAGGTGCTAG	-0.0851 z-score
